Assay results from different studies.
Numbered parts are unrelated; each lists some results of a single study.

Set 1
Target: Fragile X messenger ribonucleoprotein 1, C-terminal low-complexity region (Fmr1, Mus musculus, UniProt P35922)
Method: RNA Bind-n-Seq
Form: RNA
Medium: in vitro
Tested at: 200 nM
Notes: whole 134-nt RNA, ends assumed
Together with: 150 mM KCl
Baseline: input library
Reading: higher = stronger binding
All sequences stand within: GGGAGUUCUACAGUCCGACGAUC … UGGAAUUCUCGGGUGUCAAGG
`GCAGGAAGUAAAAACAAAUGGAAAUGCUUCGGAUAGUGGCAAGGGUGGGGGUUGCUAAGGAAAGGGUGGGAUGGGAGUGGGUAAAGAGUU` gave a log2 enrichment of 0.0805.
`AGUCCUGUGCUACACAUCGUAUGUACCGAAUCAAACCCCCAAACCCCCAAAUUUAAAAAAGUAUUAUGUUACGCCGUUCGGAUCUGCACU` has a log2 enrichment of -0.249.
`CAAGCCAAGGAAAUGGUGUUAGAGUUAAUUCGUGAUCAAGGCGGUUUCAGAGAAGUUCGGAAUGAGUAUGGGUCAAGAAUAGGAGGAAAU` has a log2 enrichment of -1.07.
For `AGUCCUGUGCUACACAUCGUAUGUACCGAAUCGGGGCCCCGGGCCCCGGGGCCCCGGGAAAGUAUUAUGUUACGCCGUUCGGAUCUGCAC`, the log2 enrichment was -1.06.
With `UGGCCCUAGUGGCAUGCGGGGAGGAAGAGGUGGCCUCAUGGAUCGUGGUGGUCCCGGUGGAAUGUUCAGAGGUGGCCGUGGUGGAGACAG` the log2 enrichment was 0.0389.
`ACCAUGCAGGUGGGCAUCUUUGGGAAGUGGGGCAAGAAAGGGAUAGGGAGGGGGGUAACACUUUGGGAACAGGUGGUCCCAGGUCGUUUC` has a log2 enrichment of 0.686.
For `UCAAGUCCUGUGCUACACAUCGUAUGUACCGAAUCGGGGCCGGCCGGGGCCGGGAAAGUAUUAUGUUACGCCGUUCGGAUCUGCACUUCC`, the log2 enrichment was -0.248.
With `ACCAUGCAGGUGGGCAUCUUUGGGAAGUGGGGCAAGGGGGGGAUAGGGAGGGGGGUAACACUUUGGGAACAGGUGGUACCAGGUCGUUUC` the log2 enrichment was 0.297.
`AGUCCUGUGCUACACAUCGUAUGUACCGAAUCGGUUUUUGGAAAAAAAGGUUUUUGGAAAGUAUUAUGUUACGCCGUUCGGAUCUGCACU` gave a log2 enrichment of -1.41.
With `GUCCUGUGCUACACAUCGUAUGUACCGAAUCGGGGAAAGGGGAAAAAAAGGGGUGGGGAAAGUAUUAUGUUACGCCGUUCGGAUCUGCAC` the log2 enrichment was 0.474.
The log2 enrichment of `CAAGUCCUGUGCUACACAUCGUAUGUACCGAAUCGGAGGUUUUUGGAAAAAAAGGAAAGUAUUAUGUUACGCCGUUCGGAUCUGCACUUC` is reported as -0.81.
`UCCUGUGCUACACAUCGUAUGUACCGAAUCAAACCCCCCCAAACCCCCCCAAAUUUAAAAAAGUAUUAUGUUACGCCGUUCGGAUCUGCA` has a log2 enrichment of 0.0359.
`CUCAAGUCCUGUGCUACACAUCGUAUGUACCGAAUCGGGCGGGCGGGGCGGGGAAAGUAUUAUGUUACGCCGUUCGGAUCUGCACUUCCA` has a log2 enrichment of 1.39.
For `AAGUCCUGUGCUACACAUCGUAUGUACCGAAUCGGUUUUUUUGGUUUGGAAAAAGGAAAGUAUUAUGUUACGCCGUUCGGAUCUGCACUU`, the log2 enrichment was -1.15.

Set 2
Target: Sal-like protein 4, full length isoform A (SALL4, Homo sapiens, UniProt Q9UJQ4, residues 1-1053)
Chain of UniProt Q9UJQ4 (whole entry, looked up): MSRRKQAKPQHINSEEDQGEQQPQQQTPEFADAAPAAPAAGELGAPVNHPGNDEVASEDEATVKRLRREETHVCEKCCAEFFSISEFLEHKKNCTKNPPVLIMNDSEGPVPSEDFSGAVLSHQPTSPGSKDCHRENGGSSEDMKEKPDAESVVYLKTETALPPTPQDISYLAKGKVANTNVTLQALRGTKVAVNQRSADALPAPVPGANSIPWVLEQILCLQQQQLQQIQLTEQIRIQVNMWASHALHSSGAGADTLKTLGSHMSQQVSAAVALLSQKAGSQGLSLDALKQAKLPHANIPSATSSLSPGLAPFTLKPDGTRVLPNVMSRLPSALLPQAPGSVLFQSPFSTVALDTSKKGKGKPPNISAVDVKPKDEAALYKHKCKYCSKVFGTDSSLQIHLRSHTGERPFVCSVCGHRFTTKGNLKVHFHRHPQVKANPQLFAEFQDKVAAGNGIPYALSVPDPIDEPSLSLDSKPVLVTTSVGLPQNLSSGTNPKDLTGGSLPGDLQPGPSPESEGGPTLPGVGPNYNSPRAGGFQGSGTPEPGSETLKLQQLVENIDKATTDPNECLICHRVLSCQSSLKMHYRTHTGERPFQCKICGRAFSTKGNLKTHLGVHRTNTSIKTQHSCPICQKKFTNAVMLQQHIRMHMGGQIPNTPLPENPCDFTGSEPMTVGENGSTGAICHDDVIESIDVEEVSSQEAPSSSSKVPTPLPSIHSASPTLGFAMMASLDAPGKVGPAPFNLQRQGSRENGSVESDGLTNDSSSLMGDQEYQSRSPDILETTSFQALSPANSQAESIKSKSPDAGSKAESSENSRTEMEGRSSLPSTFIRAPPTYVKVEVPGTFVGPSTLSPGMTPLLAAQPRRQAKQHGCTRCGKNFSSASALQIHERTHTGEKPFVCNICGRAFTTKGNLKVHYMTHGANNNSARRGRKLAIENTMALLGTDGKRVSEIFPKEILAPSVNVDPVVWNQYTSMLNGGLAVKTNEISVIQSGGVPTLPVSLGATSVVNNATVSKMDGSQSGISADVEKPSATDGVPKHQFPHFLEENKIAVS
Method: universal PBM
Form: double-stranded DNA, one strand shown
Medium: in vitro
Tested at: 600 nM
Notes: 8-mer, flanks averaged, mean of replicates
Reading: higher = stronger binding
`GACTGTCC` gave an E-score of -0.197.
`AGTTATAA` has an E-score of 0.385.
The E-score of `ACCGCTGG` is reported as -0.226.
The E-score of `CCCCAAGC` is reported as -0.191.
The E-score of `ATCTAGCA` is reported as 0.101.
The E-score of `AATCTGTG` is reported as 0.0621.
`GAGTCCAC` has an E-score of -0.223.
`ATCGAGCC` has an E-score of -0.0475.
With `CACCGCGC` the E-score was -0.394.
The E-score of `GCATATGC` is reported as 0.0906.
With `ATGAGCTA` the E-score was 0.144.
The E-score of `CTGGTGGC` is reported as -0.389.
With `AGCATACG` the E-score was 0.029.
`CCTGCGCC` has an E-score of -0.248.
For `AGCTGTGC`, the E-score was -0.174.
`ACGGACTC` has an E-score of -0.229.

Set 3
Target: RNA binding protein fox-1 homolog 2, RRM domain, GST-SBP tag (RBFOX2, Homo sapiens, UniProt O43251-10, residues 100-194)
Method: RNA Bind-n-Seq
Form: RNA
Medium: in vitro
Tested at: 365 nM
Notes: natural RNA segment, single round, ends assumed
Baseline: no-protein control
Reading: higher = stronger binding
All sequences stand within: GGGAGUUCUACAGUCCGACGAUC … UGGAAUUCUCGGGUGCCAA
Construct (chain): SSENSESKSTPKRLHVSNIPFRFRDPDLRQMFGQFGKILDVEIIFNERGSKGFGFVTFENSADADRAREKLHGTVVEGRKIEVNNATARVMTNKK
For `AGAAGCACAGCUACCUGCCUUCACUGAAAUAUACCUCAGGCUGAAAUUUGGGGUGGGAUAGCAGGUCAGUUGAUCUUCUGCAGGAAGGUGCAGCUUUUCCAUAUCAGCUC`, “RBNS enrichment (R)” read 0.235.
`CUUGAACUUCUGAUCCUGCCUAUCUGUUCUAUGUGAGUGGCAUCUGGGCCCCUAACCUGUCAGUUCACCCAUCUAGACCAGAGUCUGUAGCCAGACCUGGCCCACUGCCU`: “RBNS enrichment (R)” 0.413.
`CCAGAGAGUAAGAAAGCCCAAAUCUGUUACAGCUUCUAAAAAAAUAGAUUUCUAAUUUGUCCUACUCAUGUUAGGAGCAUUAUCUUUGAAGGUAAAACAUAGUGUAUCAU`: “RBNS enrichment (R)” 1.07.
`UAGAGAGAAAAGAGAGUGCGCUUUGGAAAUUUAUUCCAGUUUUCAGCCUACAGCAGAUUAUCAGCUCGGUGACUUUUCUUUCUGCCACCAUUUAGGUGAUGGUGUUUGAU` — result for “RBNS enrichment (R)”: 0.307.
For `CCAAUUUUCUUCUACAGCAGAACUUUGAUGAAGAUUGAAGGGACUUUUUUAUAUCUCACACUUCACACCAGUGCAUUACACUAACUUGUUCACUGGAUUGUCUGGGAUGA`, “RBNS enrichment (R)” read 0.352.
`CUCUCUUGGGGUUCCACACCCAUUUCUUGCCAGCAGCUCCCAGUGAUGCUGUGUUUUGUAUGUUAGUUACACAACUUUGUGUCCUGCCAGGUCAUGUUCUAAAAUUAAGG`: “RBNS enrichment (R)” 0.581.
`AGAAACUUCCAAAUCCCCUAAGCAGACCACUGAUAAAACCAUGUAGAAAAUUUGUUAUUUUGCAACCUCGCUGGACUCUCAGUCUCUGAGCAGUGAAUGAUUCAGUGUUA`: “RBNS enrichment (R)” 0.729.
`UCCUGGGAGGAGUUAGAAGUAAUGGUUUAGUUCAGGCAGCUACACGUGCCUAUUUAUCCCUCGUUCCUGAACACUACUAGUACCGUAGGGCUGGACCACCAUCUGUACCG`: “RBNS enrichment (R)” 0.367.
`GCUGUUUGUAACACAUCUGUUAUUCUGCCUACCUGUACUUUUUGCUGCCCAUCCCUGUUGCCUUUGAGUUUCUUGGAAUUGUGGCUGUCCUCGGAAUCUCUUUUCUAUUC`: “RBNS enrichment (R)” 0.408.
`CACCUGGCUCUGUCUUCCUACAGCUGCUCGCACUGACCUGUGGGAACCUGUGGGUCAUCCCCAGGCUGAAUGGAGUACACACUAGAAGAGGGAUGAUGCCUAGCAUUGGG` — result for “RBNS enrichment (R)”: 0.789.
`ACAUGGUGAAACCCUAUCUCCACUAAAAAUACAAAAUUAGCUGGGUGUGGUGGCGCAUGCCUGUAAUCCCAGCUACUUGGGAGACUGAGGCAAGAGAAUCACUUGAACCC`: “RBNS enrichment (R)” 0.526.
`CAAAUGGAGUCAUUCUCCUUACUUCUGGCAGAAGGGUCAUAGCUCUCCCAGUAGUAGACCUGUGGUACCUAACGGCGUAUCAGGGCAUGCUGGUAUCACAAGACCCUGAU`: “RBNS enrichment (R)” 0.27.

Set 4
Target: Histone acetyltransferase KAT6A, both winged helices, GST fusion (KAT6A, Homo sapiens, UniProt Q92794, residues 1-181)
Method: protein binding microarray
Form: double-stranded DNA, one strand shown
Medium: in vitro
Tested at: not given
Notes: 8-mer, flanks averaged, mean of 2 arrays, mostly near background
Baseline: not given
Reading: higher = stronger binding
Target sequence (chain): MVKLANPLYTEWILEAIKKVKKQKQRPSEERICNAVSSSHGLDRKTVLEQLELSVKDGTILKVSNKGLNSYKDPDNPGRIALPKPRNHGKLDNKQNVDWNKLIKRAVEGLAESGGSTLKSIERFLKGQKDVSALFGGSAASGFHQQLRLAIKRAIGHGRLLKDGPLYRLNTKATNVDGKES
For `CCCAGCGG`, the E-score was 0.143.
With `AAACAGAG` the E-score was -0.147.
`ACCATAGG` has an E-score of -0.109.
`AACAACAC` gave an E-score of -0.134.
With `AATGAGCG` the E-score was 0.137.
`GATCCCAC` gave an E-score of -0.18.
For `TCTGAAGA`, the E-score was -0.0682.
The E-score of `AGGACAAT` is reported as -0.187.
With `AGAAGTCC` the E-score was -0.0742.
With `ACTGGTGA` the E-score was -0.117.
`CACAGGTA` has an E-score of -0.0587.
For `AGGGGCCC`, the E-score was -0.0832.
For `GCTCCAGC`, the E-score was 0.06.
`AGATGCCA` has an E-score of -0.21.
The E-score of `GCCTGACC` is reported as -0.0944.
For `GTTGGTGA`, the E-score was 0.0269.
With `TGGCATAA` the E-score was -0.136.
`GTGTGTTA` gave an E-score of -0.0746.
`CGACTGCC` has an E-score of 0.114.

Set 5
Target: Prothrombin, mature alpha-thrombin (F2, Homo sapiens, UniProt P00734)
Method: aptamer microarray, sandwich
Form: DNA with 2'F-ANA
Medium: in vitro
Tested at: 200 nM
Notes: whole 15-mer aptamer, many near background
Together with: Cy3 exosite-II aptamer, 400 nM
Reading: higher = stronger binding
Oligonucleotide: GGTTGGTGTGGTTGG
Under “mean fluorescence intensity”, `2'F-ANA at 1 3 6 9 10 12 14` is recorded as 63.3 a.u.
Under “mean fluorescence intensity”, `2'F-ANA at 2 5 6 8 10 11 15` is recorded as 61 a.u.
Under “mean fluorescence intensity”, `2'F-ANA at 2 6 7 9 11 12 14 15` is recorded as 128 a.u.
For `2'F-ANA at 4 9 10 11 12 14 15`, “mean fluorescence intensity” read 68.9 a.u.
For `2'F-ANA at 2 3 5 7 8 9 11 13 14 15`, “mean fluorescence intensity” read 53.9 a.u.
`2'F-ANA at 5 6 11 15` — result for “mean fluorescence intensity”: 55.3 a.u.
`2'F-ANA at 1 6 10 11 12 13 15`: “mean fluorescence intensity” 70.2 a.u.
For `2'F-ANA at 2 3 5 6 7 10 12 14 15`, “mean fluorescence intensity” read 48.8 a.u.
For `2'F-ANA at 2 3 4 6 7 13 14`, “mean fluorescence intensity” read 227 a.u.
`2'F-ANA at 1 3 5 7 8 10 12 13 15` — result for “mean fluorescence intensity”: 48.1 a.u.
`2'F-ANA at 1 6 7 10 11 12 15`: “mean fluorescence intensity” 63.3 a.u.
`2'F-ANA at 2 3 4 6 7 9 10 11 12 13 15`: “mean fluorescence intensity” 179 a.u.
`2'F-ANA at 1 6 7 8 12 13 14` — result for “mean fluorescence intensity”: 73.5 a.u.
For `2'F-ANA at 2 3 7 8 9 15`, “mean fluorescence intensity” read 775 a.u.
`2'F-ANA at 2 3 5 6 13 14 15` — result for “mean fluorescence intensity”: 174 a.u.
Under “mean fluorescence intensity”, `2'F-ANA at 1 2 3 4 6 7 8 10 11 13 14` is recorded as 105 a.u.
For `2'F-ANA at 1 3 8 9 13 14 15`, “mean fluorescence intensity” read 83.6 a.u.
For `2'F-ANA at 4 7 9 10 11 13 14 15`, “mean fluorescence intensity” read 59.7 a.u.
`2'F-ANA at 2 5 7 8 10 11 14 15` — result for “mean fluorescence intensity”: 92 a.u.
For `2'F-ANA at 1 5 6 7 8 9 11 12 13 15`, “mean fluorescence intensity” read 73.5 a.u.
`2'F-ANA at 2 3 6 7 10 12 13 14` — result for “mean fluorescence intensity”: 256 a.u.
For `2'F-ANA at 1 3 4 5 9 10 13 14 15`, “mean fluorescence intensity” read 49.3 a.u.
Under “mean fluorescence intensity”, `2'F-ANA at 1 8 10 11 12` is recorded as 64.4 a.u.
`2'F-ANA at 2 3 4 5 7 8 15`: “mean fluorescence intensity” 98.4 a.u.
For `2'F-ANA at 1 7 9 12 13`, “mean fluorescence intensity” read 235 a.u.

Some of these lines once more (set 4):
With `TGGCATAA` the E-score was -0.136.
For `GCTCCAGC`, the E-score was 0.06.
For `AGGGGCCC`, the E-score was -0.0832.
`GATCCCAC` gave an E-score of -0.18.
`CACAGGTA` has an E-score of -0.0587.
